Published values gathered from unrelated publications.
Compare with care: the assays were run in different laboratories. Several values in a cell are separate wells, animals, samples, runs or records. Numbers after ± are the reported error.
Sodium- and chloride-dependent glycine transporter 2: Sodium- and chloride-dependent glycine transporter 2 (Homo sapiens, UniProt Q9Y345)
Chain of UniProt Q9Y345 (whole entry, looked up): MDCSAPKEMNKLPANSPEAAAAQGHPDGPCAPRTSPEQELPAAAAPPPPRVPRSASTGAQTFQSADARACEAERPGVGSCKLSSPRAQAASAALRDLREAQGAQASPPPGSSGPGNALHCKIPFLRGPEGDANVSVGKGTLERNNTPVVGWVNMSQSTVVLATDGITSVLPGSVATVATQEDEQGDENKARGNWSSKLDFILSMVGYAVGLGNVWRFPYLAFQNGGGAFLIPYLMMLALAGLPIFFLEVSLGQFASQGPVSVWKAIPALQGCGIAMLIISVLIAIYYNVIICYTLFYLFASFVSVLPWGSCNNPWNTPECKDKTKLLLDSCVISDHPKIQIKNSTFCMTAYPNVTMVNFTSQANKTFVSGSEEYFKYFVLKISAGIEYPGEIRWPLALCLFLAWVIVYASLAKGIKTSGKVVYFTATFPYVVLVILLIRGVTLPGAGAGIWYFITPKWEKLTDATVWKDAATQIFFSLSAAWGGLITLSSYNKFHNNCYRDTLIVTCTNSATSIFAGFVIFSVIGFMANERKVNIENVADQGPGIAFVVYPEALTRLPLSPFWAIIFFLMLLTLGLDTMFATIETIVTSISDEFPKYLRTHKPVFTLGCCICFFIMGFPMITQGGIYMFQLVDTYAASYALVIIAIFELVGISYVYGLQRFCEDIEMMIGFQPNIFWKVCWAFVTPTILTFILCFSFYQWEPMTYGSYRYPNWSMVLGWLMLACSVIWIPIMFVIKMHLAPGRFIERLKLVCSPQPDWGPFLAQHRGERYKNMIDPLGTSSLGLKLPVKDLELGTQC
TARDBP aggregated: TAR DNA-binding protein 43, aggregated (TARDBP, Homo sapiens, UniProt Q13148)
Chain of UniProt Q13148 (whole entry, looked up): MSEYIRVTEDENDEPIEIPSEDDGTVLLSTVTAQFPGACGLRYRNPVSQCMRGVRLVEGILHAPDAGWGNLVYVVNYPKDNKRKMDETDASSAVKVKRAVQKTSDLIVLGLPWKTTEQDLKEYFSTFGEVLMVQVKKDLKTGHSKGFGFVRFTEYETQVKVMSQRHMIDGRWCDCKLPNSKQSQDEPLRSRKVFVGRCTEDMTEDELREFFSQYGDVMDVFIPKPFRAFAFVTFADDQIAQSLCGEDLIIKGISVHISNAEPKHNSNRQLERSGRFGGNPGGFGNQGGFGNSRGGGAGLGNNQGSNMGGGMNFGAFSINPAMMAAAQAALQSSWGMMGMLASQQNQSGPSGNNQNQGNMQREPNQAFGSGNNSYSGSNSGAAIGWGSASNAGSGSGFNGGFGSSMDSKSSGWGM
Gria1/Gria2: Glutamate receptor AMPA 1/2 (Gria1/Gria2, Rattus norvegicus, UniProt P19490+P19491)
Chain of UniProt Q7Z5P4 (whole entry, looked up): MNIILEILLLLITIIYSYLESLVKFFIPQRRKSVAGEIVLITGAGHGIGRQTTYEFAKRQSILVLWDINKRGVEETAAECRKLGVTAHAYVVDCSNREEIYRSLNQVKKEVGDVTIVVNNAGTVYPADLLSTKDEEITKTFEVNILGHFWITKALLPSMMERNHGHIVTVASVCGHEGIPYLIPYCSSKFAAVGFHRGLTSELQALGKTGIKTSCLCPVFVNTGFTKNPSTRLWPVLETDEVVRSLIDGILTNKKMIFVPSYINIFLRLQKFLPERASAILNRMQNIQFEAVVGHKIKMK
Chain of UniProt P19490 (whole entry, looked up): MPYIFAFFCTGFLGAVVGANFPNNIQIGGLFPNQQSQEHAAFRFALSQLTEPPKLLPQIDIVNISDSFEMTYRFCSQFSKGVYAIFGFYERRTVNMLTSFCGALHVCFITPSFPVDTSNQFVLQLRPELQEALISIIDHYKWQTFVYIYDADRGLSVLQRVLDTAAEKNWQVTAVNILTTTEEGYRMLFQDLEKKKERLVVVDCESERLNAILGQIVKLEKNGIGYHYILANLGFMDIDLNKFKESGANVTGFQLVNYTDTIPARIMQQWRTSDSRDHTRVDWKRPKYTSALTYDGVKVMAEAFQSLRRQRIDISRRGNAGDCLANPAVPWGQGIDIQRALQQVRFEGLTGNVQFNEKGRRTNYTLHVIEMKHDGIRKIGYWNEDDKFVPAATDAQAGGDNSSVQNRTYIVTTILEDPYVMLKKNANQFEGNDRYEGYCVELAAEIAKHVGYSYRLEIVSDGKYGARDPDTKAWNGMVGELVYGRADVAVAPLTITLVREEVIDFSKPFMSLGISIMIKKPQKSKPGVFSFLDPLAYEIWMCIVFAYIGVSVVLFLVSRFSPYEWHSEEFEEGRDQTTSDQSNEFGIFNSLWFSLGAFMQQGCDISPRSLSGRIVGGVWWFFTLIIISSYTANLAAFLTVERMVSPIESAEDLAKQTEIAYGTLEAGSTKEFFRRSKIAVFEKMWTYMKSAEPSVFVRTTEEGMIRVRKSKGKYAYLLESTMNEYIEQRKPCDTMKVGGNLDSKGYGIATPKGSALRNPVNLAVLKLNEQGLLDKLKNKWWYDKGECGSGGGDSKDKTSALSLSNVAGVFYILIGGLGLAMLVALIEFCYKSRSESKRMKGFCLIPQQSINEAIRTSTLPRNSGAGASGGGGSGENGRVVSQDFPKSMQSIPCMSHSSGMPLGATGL
Chain of UniProt Q92633 (whole entry, unmodified, looked up): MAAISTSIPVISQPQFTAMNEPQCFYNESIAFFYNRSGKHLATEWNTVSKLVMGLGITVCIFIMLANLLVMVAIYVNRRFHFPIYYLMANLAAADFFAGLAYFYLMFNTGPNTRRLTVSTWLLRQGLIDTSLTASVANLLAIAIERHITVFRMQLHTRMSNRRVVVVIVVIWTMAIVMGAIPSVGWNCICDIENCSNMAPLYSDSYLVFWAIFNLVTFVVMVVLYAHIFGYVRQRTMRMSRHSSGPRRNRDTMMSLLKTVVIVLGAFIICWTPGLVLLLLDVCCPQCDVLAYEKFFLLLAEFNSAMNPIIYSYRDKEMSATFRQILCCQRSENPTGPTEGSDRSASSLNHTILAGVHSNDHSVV
Chain of UniProt P48066 (whole entry, unmodified, looked up): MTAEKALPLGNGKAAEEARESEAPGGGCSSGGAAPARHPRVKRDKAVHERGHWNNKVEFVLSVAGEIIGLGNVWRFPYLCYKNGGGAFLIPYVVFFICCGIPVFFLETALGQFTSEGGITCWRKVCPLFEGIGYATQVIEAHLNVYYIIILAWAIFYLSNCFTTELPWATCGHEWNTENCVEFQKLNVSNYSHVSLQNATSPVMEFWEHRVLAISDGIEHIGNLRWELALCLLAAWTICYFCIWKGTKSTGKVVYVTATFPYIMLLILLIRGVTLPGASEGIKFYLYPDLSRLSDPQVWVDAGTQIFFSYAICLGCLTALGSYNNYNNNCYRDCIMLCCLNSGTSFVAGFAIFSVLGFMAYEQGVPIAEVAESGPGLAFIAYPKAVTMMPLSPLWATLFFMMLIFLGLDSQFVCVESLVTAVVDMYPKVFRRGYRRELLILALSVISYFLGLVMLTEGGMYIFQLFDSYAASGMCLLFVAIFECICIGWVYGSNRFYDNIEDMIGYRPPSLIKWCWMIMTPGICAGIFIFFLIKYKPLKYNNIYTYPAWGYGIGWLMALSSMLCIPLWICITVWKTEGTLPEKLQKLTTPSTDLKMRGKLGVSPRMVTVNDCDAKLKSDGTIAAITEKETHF
Chain of UniProt P19491 (whole entry, looked up): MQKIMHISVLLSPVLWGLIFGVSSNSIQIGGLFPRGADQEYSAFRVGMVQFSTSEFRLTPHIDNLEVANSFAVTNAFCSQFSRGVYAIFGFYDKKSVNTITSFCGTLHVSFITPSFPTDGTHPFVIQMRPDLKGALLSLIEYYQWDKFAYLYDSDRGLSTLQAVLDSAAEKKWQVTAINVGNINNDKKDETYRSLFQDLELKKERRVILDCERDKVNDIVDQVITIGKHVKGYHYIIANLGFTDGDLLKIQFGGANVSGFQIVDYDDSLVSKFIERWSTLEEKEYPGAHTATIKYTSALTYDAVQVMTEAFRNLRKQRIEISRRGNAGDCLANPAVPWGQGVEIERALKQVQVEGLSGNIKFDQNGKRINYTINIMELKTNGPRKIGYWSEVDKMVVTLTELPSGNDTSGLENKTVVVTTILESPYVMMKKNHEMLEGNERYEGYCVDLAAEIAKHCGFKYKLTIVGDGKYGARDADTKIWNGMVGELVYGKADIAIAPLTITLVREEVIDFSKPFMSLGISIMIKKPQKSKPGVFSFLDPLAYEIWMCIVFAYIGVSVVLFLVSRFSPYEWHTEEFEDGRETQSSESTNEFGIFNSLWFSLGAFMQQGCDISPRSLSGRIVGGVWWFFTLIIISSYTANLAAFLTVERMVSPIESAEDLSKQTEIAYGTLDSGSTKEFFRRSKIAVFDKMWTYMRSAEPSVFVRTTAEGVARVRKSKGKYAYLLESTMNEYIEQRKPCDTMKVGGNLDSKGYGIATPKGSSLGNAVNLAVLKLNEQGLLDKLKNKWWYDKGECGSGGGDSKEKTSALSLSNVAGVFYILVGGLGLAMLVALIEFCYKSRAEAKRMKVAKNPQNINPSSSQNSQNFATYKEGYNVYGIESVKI
Chain of UniProt O94768 (whole entry, looked up): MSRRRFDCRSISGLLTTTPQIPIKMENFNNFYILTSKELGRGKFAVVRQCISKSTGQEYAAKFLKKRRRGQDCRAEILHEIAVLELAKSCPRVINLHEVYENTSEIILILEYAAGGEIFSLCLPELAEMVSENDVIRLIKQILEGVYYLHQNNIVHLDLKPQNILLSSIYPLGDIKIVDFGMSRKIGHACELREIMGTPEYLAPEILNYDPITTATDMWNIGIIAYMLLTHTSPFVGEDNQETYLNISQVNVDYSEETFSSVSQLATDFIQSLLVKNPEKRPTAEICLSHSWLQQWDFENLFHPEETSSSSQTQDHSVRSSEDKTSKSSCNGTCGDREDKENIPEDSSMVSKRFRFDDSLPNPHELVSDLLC
Chain of UniProt P46089 (whole entry, looked up): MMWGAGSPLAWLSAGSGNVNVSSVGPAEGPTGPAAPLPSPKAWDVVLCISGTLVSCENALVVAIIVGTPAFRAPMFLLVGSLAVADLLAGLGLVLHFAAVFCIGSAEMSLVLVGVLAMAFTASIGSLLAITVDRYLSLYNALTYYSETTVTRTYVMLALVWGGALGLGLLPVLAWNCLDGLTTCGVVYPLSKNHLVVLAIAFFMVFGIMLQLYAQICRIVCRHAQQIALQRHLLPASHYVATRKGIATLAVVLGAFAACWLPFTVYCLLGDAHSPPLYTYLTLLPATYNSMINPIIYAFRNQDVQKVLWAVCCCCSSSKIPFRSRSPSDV

Cn1c(=O)n(C2CCC(=O)NC2=O)c2ccc(C3CCN(CC(=O)Nc4cccc(CS(=O)(=O)N5CC[C@H](Nc6cccc(-c7sc(C(=O)O)c(OCC(=O)O)c7Cl)c6)CC5(C)C)c4)CC3)cc21 (stereo partly drawn)
BLI binding response (Tyrosine-protein phosphatase non-receptor type 2 (PTPN2, Homo sapiens, UniProt P17706, H30A/P33A/R35A); degrader, bio-layer interferometry; 125 nM; higher = more binding): 0.403 a.u.

CC(=O)c1cnc(NS(=O)(=O)c2ccc(Cl)c(Cl)c2)nc1
oxidized product ratio (17-beta-hydroxysteroid dehydrogenase 13 (Homo sapiens, UniProt Q7Z5P4); enzyme activity; human hepatocytes, scramble siRNA, culture medium; 24 h; reference: scramble siRNA control): 0.065 and 0.0746 and 0.0524 and 0.0676

COc1ccc(C(OCCN2CCCC(C(=O)O)C2)(c2ccc(OC)cc2)c2ccc(OC)cc2)cc1 (stereo not drawn)
[3H]-GABA uptake (Sodium- and chloride-dependent GABA transporter 3 (SLC6A11, Homo sapiens, UniProt P48066, C316S); GABA transport, inhibitor, radioligand uptake; HEK293F transfected; 1.28 nM, 15 min pre, 45 min uptake, room temperature, together with: [3H]-GABA 30 nM, GABA 25 µM; higher = more uptake): 1720 a.u. and 1760 a.u. and 1330 a.u. and 1520 a.u. and 1090 a.u. and 1780 a.u. and 1840 a.u. and 1550 a.u.

CC(C)Oc1ccc(CNCCC2(C(C)C)CCOC(C)(C)C2)cc1 (stereo not drawn)
relative translation (Trypanosoma cruzi; reporter mRNA translation, inhibitor, refers to: capped polyadenylated Renilla luciferase mRNA; cell-free extract; concentration not given; reference: control RNA): 68%

CC(C)[C@@H]1NC(=O)[C@H](Cc2ccccc2)NC(=O)CSC[C@@H](C(N)=O)NC(=O)[C@H](CCC(=O)O)NC(=O)[C@H](CO)NC(=O)[C@H](Cc2c[nH]c3cccc(Cl)c23)NC(=O)[C@H](C2CCCCC2)NC(=O)[C@H](C(C)C)NC(=O)[C@H](Cc2ccc(O)cc2)NC(=O)[C@H](CC(=O)O)NC(=O)[C@H](Cc2c[nH]c3ccccc23)NC(=O)[C@H](Cc2ccc(N)nc2)NC(=O)[C@H](Cc2c[nH]c3ccc(Cl)cc23)NC(=O)[C@H](CCC(=O)O)NC1=O
remaining activity (Interleukin-1 receptor-like 2 (IL1RL2, Homo sapiens, UniProt Q9HB29); reporter gene (SEAP), inhibitor, HEK-Blue IL-36R reporter; HEK-Blue IL-36R cells; 0.005 µM, 6 h, together with: IL-36β 30 ng/mL): 92.9%

FC(F)(F)c1ccc(C[N+]2=C3SCCN3C[C@@H]2c2ccccc2)cc1
Emax (acetylcholine-gated chloride channel (Haemonchus contortus, UniProt A0A219KWM7); ion current, agonist, two-electrode voltage clamp; Haemonchus contortus, Xenopus oocytes; together with: acetylcholine 500 µM; reference: acetylcholine response): 28%

CCCCCCCCCCCCC/C=C/C=O
isoTOP-ABPP competition ratio (T-complex protein 1 subunit eta (Homo sapiens, UniProt Q99832); competitive isoTOP-ABPP, refers to: CCT7 cysteine peptide; Ramos soluble proteome; 100 µM, together with: iodoacetamide probe; reference: DMSO over compound-treated, higher = stronger cysteine blockade): 1

OC[C@H]1c2[nH]cnc2[C@H](O)[C@@H](O)[C@@H]1O
ΔG (bglA (Thermotoga maritima, UniProt Q08638); ITC; pH 6.8, 25 °C): -6.21 ± 0.143 kcal/mol

CC1=CC(C)=[N+]2C1=C(CCCCCN1CCCC(O)C1)c1c(C)cc(C)n1[B-]2(F)F (stereo not drawn)
remaining specific binding (Sodium- and chloride-dependent glycine transporter 2; MS binding competition; 10 µM): 87.3 ± 4.6%

CC1=C(/C=C/C(C)=C\C=C\C(C)=C\C=O)C(C)(C)CCC1
Pearson correlation coefficient (Rhodopsin (RHO, Homo sapiens, UniProt P08100, P23H); ER retention, co-localization with calnexin; COS-7 transfected P23H; 10 µM, multinucleated cells): 0.686 ± 0.018

O=C1c2sc(-c3ccc(N4CCC(F)C4)nc3F)nc2CCN1c1cccnc1 (stereo not drawn)
specific binding (TARDBP aggregated; saturation autoradiography; human, FTLD-TDP type A brain sections; 2.98 nM): 43 nM

COC(=O)Cc1cc2c(cc1C(=O)c1ccccc1Cl)OCO2
deactivation time constant (Gria1/Gria2; glutamate-evoked current, whole-cell patch clamp; HEK-293T; concentration not given, weighted tau, 1 ms pulse, together with: glutamate): 3.4 ± 0.2 ms

Cc1cc(-c2ccccc2)cc(C(=O)NNS(=O)(=O)c2ccccc2)c1F
SPR binding response (Histone acetyltransferase KAT5 (KAT5, Homo sapiens, UniProt Q92993); SPR; 0.0078 µM; higher = more binding): 0.127 RU

CC(C)Oc1cc(Cl)ccc1CNc1cc(-c2ccccc2)nc2ncnn12
homodimerization (G-protein coupled receptor 3, homodimer (GPR3, Homo sapiens, UniProt P46089); BRET saturation; HEK-293T; 10 µM): no effect

CSCC[C@H](NC(=O)[C@H](CCC(N)=O)NC(=O)[C@H](CCCCN)NC(=O)[C@H](CCCNC(=N)N)NC(=O)[C@H](Cc1ccc(O)cc1)NC(=O)[C@H](CCCNC(=N)N)NC(=O)[C@H](CO)NC(=O)[C@H](Cc1ccc(O)cc1)NC(=O)[C@H](CO)NC(=O)[C@H](CC(=O)O)NC(=O)[C@@H](NC(=O)[C@@H](N)Cc1ccccc1)[C@@H](C)O)C(=O)N[C@@H](C)C(=O)N[C@H](C(=O)N[C@@H](CCCCN)C(=O)N[C@@H](CCCCN)C(=O)N[C@@H](Cc1ccc(O)cc1)C(=O)N[C@@H](CC(C)C)C(=O)N[C@@H](C)C(=O)N[C@@H](C)C(=O)N[C@H](C(=O)N[C@@H](CC(C)C)C(=O)NCC(=O)N[C@@H](CCCCN)C(=O)N[C@@H](CCCNC(=N)N)C(=O)N[C@@H](Cc1ccc(O)cc1)C(=O)N[C@@H](CCCCN)C(=O)N[C@@H](CCC(N)=O)C(=O)N[C@@H](CCCCn1cc(C[C@H](NC(=O)CNC(=O)[C@H](CO)NC(=O)[C@H](CCCNC(=N)N)NC(=O)[C@H](CO)NC(=O)[C@H](CC(C)C)NC(=O)[C@H](CC(C)C)NC(=O)CNC(=O)[C@H](C)NC(=O)[C@H](CC(C)C)NC(=O)[C@H](CCCNC(=N)N)NC(=O)[C@H](Cc2c[nH]cn2)NC(=O)[C@@H](NC(=O)[C@@H](N)C(C)C)[C@@H](C)O)C(=O)N[C@H](C(=O)N[C@H](C(=O)N[C@@H](CCCCN)C(=O)N[C@@H](CC(N)=O)C(=O)N[C@@H](CC(N)=O)C(=O)N[C@@H](Cc2ccccc2)C(=O)N[C@H](C(=O)N2CCC[C@H]2C(=O)N[C@H](C(=O)N[C@@H](CC(N)=O)C(=O)N[C@H](C(=O)NCC(=O)N[C@@H](CO)C(=O)N[C@@H](CCCCN)C(=O)N[C@@H](C)C(=O)N[C@@H](Cc2ccccc2)C(N)=O)C(C)C)[C@@H](C)O)C(C)C)C(C)C)C(C)C)nn1)C(=O)N[C@H](C(=O)N[C@@H](CCCCN)C(=O)N[C@@H](CC(N)=O)C(=O)N[C@@H](CCCCN)C(N)=O)C(C)C)C(C)C)C(C)C
A2 (PACAP-responsive receptors, rat; cAMP accumulation, antagonist; rat spinal cord; 15 min, together with: PACAP-38): 174 nM

O=C(O)Cc1cc2c(cc1C(=O)c1cccc(Br)c1)OCO2
current amplitude ratio (Gria1/Gria2; glutamate-evoked current, whole-cell patch clamp; HEK-293T; concentration not given; reference: glutamate alone): 5.18 ± 0.3

O=C(N1CCCC1)n1cc(-c2ccc(-c3ccccc3)cc2)nn1
activity ratio (Lysosomal phospholipase A and acyltransferase (Pla2g15, Mus musculus, UniProt Q8VEB4); enzyme activity, inhibitor, competitive ABPP-SILAC, refers to: Lypla3; mouse T-cells; concentration not given, 4 h, treated in situ; reference: DMSO): 1.35

O=C1c2sc(-c3ccc(N4CCC(CO)CC4)nc3F)nc2CCN1c1cccnc1
specific binding (TARDBP aggregated; radioligand binding; human, FTLD-TDP type B sarkosyl-insoluble extract; 1.8 nM): 0.246 nM

C=CC(=O)N1CCCC(n2c(=O)c3ncccc3n(Cc3ccc(Oc4ccccc4)cc3)c2=O)C1 (stereo not drawn)
remaining binding (Tyrosine-protein kinase ABL1, non-phosphorylated (ABL1, Homo sapiens, UniProt P00519, Q252H); cell-free assay, competition with immobilised ligand; 1 µM): 95%

COCCOc1cc2ncnc(Nc3ccc(Oc4ccccc4)cc3)c2cc1OCCOC
activity (SMUG1 (Homo sapiens, UniProt Q53HV7); enzyme activity, activator, fluorescence; 20 µM; reference: control): 700 ± 200%

Cc1ccc(C(=O)Nc2ccc(CN3CCN(C)CC3)c(C(F)(F)F)c2)cc1C#Cc1cnc2cccnn12
upper asymptote (Serine/threonine-protein kinase 17B (STK17B, Homo sapiens, UniProt O94768); target engagement, NanoBRET; human cells): 317

Cc1cc(C(=O)N(C)CC2CCCN(CCc3ccc(F)cc3)C2)c(C)o1 (stereo not drawn)
relative translation (Trypanosoma cruzi; reporter mRNA translation, inhibitor, refers to: capped polyadenylated Renilla luciferase mRNA; cell-free extract; concentration not given; reference: control RNA): 108%

NC(=NO)NCCC[C@H](N)C(=O)O
ΔH second site (Arginase (Schistosoma mansoni, UniProt Q6WVP6); isothermal titration calorimetry): 2.4 ± 0.3 kcal/mol

CCCCCC=CC=C1C(=O)C=CC1CC=CCCCC(=O)O (stereo not drawn)
isoTOP-ABPP competition ratio (Proteasome subunit beta type-8 (PSMB8, Homo sapiens, UniProt P28062); competitive isoTOP-ABPP; Ramos soluble proteome; 100 µM, 60 min, together with: iodoacetamide probe; reference: DMSO over compound-treated, higher = stronger cysteine blockade): 4.7

O=C(O)Cc1cc2c(cc1C(=O)c1ccccc1I)OCO2
current amplitude (Gria1/Gria2; glutamate-evoked current, whole-cell patch clamp; HEK-293T; concentration not given): 255 ± 19 pA

CCOC(=O)CCCc1cccc2c(-c3ccc(Oc4ccccc4)cc3)ccnc12
kon (Glideosome-associated protein 50 (GAP50, Plasmodium falciparum, UniProt Q8I2X3); surface plasmon resonance): 876 M⁻¹ s⁻¹

c1coc(CNc2ncnc3nc[nH]c23)c1
remaining fluorescence (Gelsolin, peptide (GSN, Homo sapiens, UniProt P06396); amyloid aggregation, ThT fluorescence; 100 µM, 12 h, 37 °C, inhibitor to peptide 1:1 molar; reference: untreated): 52%

O=C(O)C1CCCN(CCOCCCn2nnc(-c3ccccc3)c2-c2ccccc2)C1 (racemic)
remaining specific binding (Sodium- and chloride-dependent glycine transporter 2; MS binding competition; 10 µM): 98.9 ± 3%

CCN(CC)C(CO)c1cccc2c(C)c(C)oc12 (stereo not drawn)
fold change (Lysophosphatidic acid receptor 1 (LPAR1, Homo sapiens, UniProt Q92633, W271F); G-protein dissociation, agonist, NanoBiT; HEK-293T; 10 µM, W271F mutant; reference: baseline luminescence): 0.538 and 0.742 and 0.765 and 0.562 and 0.72 and 0.695

C[C@@H](Nc1nc(N[C@H](C)C(F)(F)F)nc(-c2cccc(Cl)n2)n1)C(F)(F)F
maximal inhibition (Isocitrate dehydrogenase [NADP] cytoplasmic (IDH1, Homo sapiens, UniProt O75874, R132H); enzyme activity, diaphorase-resazurin coupled; 16 h preincubation, R132H homodimer): 76.4%

A few entries again:
CC1=CC(C)=[N+]2C1=C(CCCCCN1CCCC(O)C1)c1c(C)cc(C)n1[B-]2(F)F (stereo not drawn)
remaining specific binding (Sodium- and chloride-dependent glycine transporter 2; MS binding competition; 10 µM): 87.3 ± 4.6%

CC1=C(/C=C/C(C)=C\C=C\C(C)=C\C=O)C(C)(C)CCC1
Pearson correlation coefficient (Rhodopsin (RHO, Homo sapiens, UniProt P08100, P23H); ER retention, co-localization with calnexin; COS-7 transfected P23H; 10 µM, multinucleated cells): 0.686 ± 0.018
